{"data": "Assay results of several laboratories", "note": "Each line is one published result; not all experiments were run side by side. Several values in a cell are separate wells, animals, samples, runs or records. Numbers after ± are the reported error."}
{"Compound": "C[C@]12CC[C@@H]3c4ccc(O)cc4C[C@@H](CCCCCCCCC[S+]([O-])CCCC(F)(F)C(F)(F)F)[C@H]3[C@@H]1CC[C@@H]2O (stereo partly drawn)", "tested on": "T47D", "assay": "CCK-8", "conditions": "200 nM", "scale": "relative to: untreated", "measurement": "viability", "value": "66.6% and 65.8% and 70.1%"}
{"Compound": "COc1ccc2c(c1OC)CN1CCc3cc4c(cc3C1=C2)OCO4", "tested on": "KU812", "assay": "crystal violet", "conditions": "up to 37 µM, 24 and 48 h", "measurement": "viability", "value": "not toxic"}
{"Compound": "Nc1nc2c(ncn2[C@H]2C[C@H](O)[C@@H](COP(=O)(O)O)O2)c(=O)[nH]1", "assay": "binding, equilibrium dialysis LC-MS", "conditions": "5 µM, thermostabilized A2AR-BRIL construct", "scale": "relative to: no-protein control, direction not given", "measurement": "z-scored log2 fold change", "value": 0.125}
{"Compound": "O=c1[nH]cc(F)c(=O)[nH]1", "tested on": "H1299", "assay": "CCK-8", "conditions": "50 µM, 72 h", "scale": "relative to: control", "measurement": "viability", "value": "32.39 ± 0.16%"}
{"Compound": "CCCCCCCCN(CCC(=O)Nc1ccccc1)C(=O)[C@H]1CCCN1", "tested on": "Lmna+/+ mouse fibroblasts", "assay": "MTT", "conditions": "2 µM, 72 h", "scale": "relative to: vehicle", "measurement": "viability", "value": "114 ± 6%"}
{"Compound": "CC[C@]1(O)C[C@H]2CN(CCc3c([nH]c4ccccc34)[C@@](C(=O)OC)(c3cc4c(cc3OC)N(C=O)[C@H]3[C@@](O)(C(=O)OC)[C@H](OC(C)=O)[C@]5(CC)C=CCN6CC[C@]43[C@@H]65)C2)C1", "tested on": "CHP-212 resistant subline R2 (heterozygous USP7 V517F)", "assay": "cell viability", "conditions": "123.5 nM", "measurement": "viability", "value": "13.5% and 17.7% and 13.7%"}
{"Compound": "NS(=O)(=O)c1nnc(NC(=O)C2CC23CCOCC3)s1 (stereo not drawn)", "tested on": "Alpha-carbonic anhydrase (Enterococcus faecium, UniProt Q3XYE8)", "assay": "CO2 hydration, inhibitor, stopped-flow kinetics", "measurement": "Ki", "value": "62.8 nM"}
{"Compound": "CNc1ccc([N+](=O)[O-])cc1-n1cnc(-c2ccc(C(F)(F)F)cc2)c1", "tested on": "HEK-Blue hTLR2", "assay": "MTT", "conditions": "up to 100 µM, 24 h", "measurement": "viability", "value": "not toxic"}
{"Compound": "O=C(Nc1ccccc1OS(=O)(=O)c1ccc(F)cc1)c1ccc2ncccc2c1", "tested on": "HEK293T cells", "assay": "MTT", "conditions": "100 µM, 24 h", "scale": "relative to: untreated", "measurement": "viability", "value": "81.5 ± 1.14%"}
{"Compound": "CC(=O)Nc1cccc(-n2c(=O)n(C3CC3)c(=O)c3c(Nc4ccc(I)cc4F)n(C)c(=O)c(C)c32)c1", "tested on": "LoVo (KRAS G13D)", "assay": "resazurin", "conditions": "100.00 nM, 72 h, unit not given", "scale": "relative to: DMSO", "measurement": "viability", "value": "0.302 and 0.281"}
{"Compound": "O=c1ccn([C@H]2C[C@H](O)[C@@H](COP(=O)(O)O)O2)c(=O)[nH]1", "assay": "binding, equilibrium dialysis LC-MS", "conditions": "5 µM, thermostabilized A2AR-BRIL construct", "scale": "relative to: no-protein control, direction not given", "measurement": "z-scored log2 fold change", "value": 0.306}
{"Compound": "COc1cccc2c1C(=O)c1c(O)c3c(c(O)c1C2=O)C[C@@](O)(C(=O)CO)C[C@@H]3O[C@H]1C[C@H](N)[C@H](O)[C@H](C)O1", "tested on": "HEK293T cells", "assay": "MTT", "conditions": "10 µM, 24 h", "scale": "relative to: untreated", "measurement": "viability", "value": "56.15 ± 0.46%"}
{"note": "Some of these lines once more:"}
{"Compound": "C[C@]12CC[C@@H]3c4ccc(O)cc4C[C@@H](CCCCCCCCC[S+]([O-])CCCC(F)(F)C(F)(F)F)[C@H]3[C@@H]1CC[C@@H]2O (stereo partly drawn)", "tested on": "T47D", "assay": "CCK-8", "conditions": "200 nM", "scale": "relative to: untreated", "measurement": "viability", "value": "66.6% and 65.8% and 70.1%"}
